# Experimental data pooled from the literature.
# Each numbered part is a random draw from the data of one study; scales do not carry over between parts.
# Sequence of UniProt Q99759 (whole entry, looked up): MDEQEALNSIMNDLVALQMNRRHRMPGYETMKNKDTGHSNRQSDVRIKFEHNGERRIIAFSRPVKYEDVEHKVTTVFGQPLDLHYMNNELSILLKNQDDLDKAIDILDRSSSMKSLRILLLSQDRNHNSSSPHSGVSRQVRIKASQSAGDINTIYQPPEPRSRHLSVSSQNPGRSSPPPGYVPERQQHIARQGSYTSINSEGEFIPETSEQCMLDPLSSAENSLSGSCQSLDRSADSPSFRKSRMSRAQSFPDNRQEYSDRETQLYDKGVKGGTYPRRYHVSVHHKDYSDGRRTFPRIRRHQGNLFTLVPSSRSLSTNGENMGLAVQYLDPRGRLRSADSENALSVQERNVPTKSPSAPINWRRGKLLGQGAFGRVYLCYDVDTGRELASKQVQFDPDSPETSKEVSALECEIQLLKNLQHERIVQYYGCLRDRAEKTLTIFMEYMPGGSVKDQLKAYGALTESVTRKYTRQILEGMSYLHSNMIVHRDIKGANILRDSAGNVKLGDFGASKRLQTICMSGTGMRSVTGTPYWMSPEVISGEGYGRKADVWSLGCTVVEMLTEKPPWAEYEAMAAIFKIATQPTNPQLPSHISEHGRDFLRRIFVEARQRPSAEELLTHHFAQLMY
# Sequence of UniProt Q14164 (whole entry, looked up): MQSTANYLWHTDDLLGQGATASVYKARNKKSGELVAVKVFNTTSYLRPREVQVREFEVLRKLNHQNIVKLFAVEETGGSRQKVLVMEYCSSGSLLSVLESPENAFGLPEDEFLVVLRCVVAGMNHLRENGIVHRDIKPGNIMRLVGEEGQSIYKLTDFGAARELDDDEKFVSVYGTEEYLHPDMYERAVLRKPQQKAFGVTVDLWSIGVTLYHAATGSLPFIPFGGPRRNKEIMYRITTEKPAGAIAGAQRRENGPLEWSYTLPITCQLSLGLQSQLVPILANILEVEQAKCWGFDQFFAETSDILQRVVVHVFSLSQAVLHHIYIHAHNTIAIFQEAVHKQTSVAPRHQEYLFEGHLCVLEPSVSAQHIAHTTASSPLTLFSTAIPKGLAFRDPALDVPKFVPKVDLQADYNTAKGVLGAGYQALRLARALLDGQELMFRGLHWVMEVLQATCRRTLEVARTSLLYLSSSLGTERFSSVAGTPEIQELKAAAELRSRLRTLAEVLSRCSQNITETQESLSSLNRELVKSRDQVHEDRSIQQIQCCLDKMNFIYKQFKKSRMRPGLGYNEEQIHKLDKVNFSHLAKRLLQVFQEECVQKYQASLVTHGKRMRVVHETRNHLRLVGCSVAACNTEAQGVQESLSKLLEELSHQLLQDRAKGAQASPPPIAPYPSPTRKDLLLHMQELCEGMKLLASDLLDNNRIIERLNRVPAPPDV
# Sequence of UniProt P05771 (whole entry, looked up): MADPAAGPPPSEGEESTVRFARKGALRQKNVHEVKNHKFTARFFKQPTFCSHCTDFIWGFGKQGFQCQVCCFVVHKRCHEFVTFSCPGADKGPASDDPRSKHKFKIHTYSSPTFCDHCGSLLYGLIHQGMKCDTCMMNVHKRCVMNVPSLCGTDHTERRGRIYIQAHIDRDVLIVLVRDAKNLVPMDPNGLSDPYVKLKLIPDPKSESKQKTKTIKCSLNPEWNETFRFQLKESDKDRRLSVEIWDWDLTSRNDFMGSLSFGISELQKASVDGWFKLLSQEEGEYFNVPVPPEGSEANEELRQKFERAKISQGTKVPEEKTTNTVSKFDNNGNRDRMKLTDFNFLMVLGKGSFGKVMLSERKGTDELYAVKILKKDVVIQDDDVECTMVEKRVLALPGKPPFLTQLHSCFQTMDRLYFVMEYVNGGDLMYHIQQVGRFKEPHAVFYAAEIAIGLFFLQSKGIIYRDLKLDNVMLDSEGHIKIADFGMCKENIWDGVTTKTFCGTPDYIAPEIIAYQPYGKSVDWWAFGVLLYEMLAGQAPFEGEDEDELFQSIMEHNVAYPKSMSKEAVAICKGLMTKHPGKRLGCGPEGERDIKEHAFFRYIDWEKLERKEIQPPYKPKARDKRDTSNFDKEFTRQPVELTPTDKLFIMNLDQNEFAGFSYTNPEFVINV
# Sequence of UniProt Q13976 (whole entry, looked up): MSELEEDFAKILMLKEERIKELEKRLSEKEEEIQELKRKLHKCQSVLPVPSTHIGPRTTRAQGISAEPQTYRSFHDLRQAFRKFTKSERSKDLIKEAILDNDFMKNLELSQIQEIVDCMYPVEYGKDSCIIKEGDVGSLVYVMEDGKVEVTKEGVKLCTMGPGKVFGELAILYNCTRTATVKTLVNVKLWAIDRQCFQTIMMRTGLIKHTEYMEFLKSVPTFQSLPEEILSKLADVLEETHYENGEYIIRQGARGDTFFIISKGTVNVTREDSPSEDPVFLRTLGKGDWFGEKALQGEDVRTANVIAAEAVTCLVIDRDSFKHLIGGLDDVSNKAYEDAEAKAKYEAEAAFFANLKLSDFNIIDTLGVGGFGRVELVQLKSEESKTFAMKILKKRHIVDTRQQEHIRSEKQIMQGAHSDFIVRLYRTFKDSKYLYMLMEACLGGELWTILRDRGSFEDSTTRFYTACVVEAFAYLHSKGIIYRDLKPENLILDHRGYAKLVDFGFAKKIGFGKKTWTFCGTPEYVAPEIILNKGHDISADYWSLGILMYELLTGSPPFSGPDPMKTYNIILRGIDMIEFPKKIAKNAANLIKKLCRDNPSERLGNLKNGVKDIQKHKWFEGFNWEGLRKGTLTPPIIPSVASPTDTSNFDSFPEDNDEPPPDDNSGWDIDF
# Sequence of UniProt P36897 (whole entry, looked up): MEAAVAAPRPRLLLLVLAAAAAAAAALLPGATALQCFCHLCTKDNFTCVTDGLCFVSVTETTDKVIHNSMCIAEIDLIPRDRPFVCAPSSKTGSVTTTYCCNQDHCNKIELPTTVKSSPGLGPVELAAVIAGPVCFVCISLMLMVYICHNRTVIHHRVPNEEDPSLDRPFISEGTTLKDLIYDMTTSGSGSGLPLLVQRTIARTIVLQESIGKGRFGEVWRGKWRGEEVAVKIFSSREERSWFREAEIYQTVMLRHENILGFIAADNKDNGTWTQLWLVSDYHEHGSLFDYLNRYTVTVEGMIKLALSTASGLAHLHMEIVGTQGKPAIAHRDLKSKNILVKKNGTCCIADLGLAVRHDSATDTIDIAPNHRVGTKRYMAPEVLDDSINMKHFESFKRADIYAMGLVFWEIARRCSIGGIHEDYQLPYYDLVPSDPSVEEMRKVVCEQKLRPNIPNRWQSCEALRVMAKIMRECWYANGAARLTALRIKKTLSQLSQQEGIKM
# Sequence of UniProt P35626 (whole entry, looked up): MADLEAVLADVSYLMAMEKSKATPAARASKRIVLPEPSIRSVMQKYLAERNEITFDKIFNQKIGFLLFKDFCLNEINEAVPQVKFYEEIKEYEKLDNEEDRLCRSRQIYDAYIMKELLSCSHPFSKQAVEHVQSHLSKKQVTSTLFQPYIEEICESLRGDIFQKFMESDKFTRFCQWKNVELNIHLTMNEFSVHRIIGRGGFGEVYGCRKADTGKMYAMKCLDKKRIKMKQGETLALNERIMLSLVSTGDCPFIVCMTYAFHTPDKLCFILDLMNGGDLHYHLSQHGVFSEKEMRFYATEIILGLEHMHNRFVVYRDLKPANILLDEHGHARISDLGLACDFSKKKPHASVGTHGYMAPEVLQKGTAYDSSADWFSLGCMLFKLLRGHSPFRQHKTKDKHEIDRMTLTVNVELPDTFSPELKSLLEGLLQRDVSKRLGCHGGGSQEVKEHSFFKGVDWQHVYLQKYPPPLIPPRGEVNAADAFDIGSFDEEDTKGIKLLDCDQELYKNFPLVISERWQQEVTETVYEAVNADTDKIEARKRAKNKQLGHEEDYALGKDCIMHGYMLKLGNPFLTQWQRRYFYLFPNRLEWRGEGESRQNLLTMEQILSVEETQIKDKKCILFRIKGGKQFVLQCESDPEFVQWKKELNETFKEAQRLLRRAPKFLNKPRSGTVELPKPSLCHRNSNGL
# Sequence of UniProt O94804 (whole entry, looked up): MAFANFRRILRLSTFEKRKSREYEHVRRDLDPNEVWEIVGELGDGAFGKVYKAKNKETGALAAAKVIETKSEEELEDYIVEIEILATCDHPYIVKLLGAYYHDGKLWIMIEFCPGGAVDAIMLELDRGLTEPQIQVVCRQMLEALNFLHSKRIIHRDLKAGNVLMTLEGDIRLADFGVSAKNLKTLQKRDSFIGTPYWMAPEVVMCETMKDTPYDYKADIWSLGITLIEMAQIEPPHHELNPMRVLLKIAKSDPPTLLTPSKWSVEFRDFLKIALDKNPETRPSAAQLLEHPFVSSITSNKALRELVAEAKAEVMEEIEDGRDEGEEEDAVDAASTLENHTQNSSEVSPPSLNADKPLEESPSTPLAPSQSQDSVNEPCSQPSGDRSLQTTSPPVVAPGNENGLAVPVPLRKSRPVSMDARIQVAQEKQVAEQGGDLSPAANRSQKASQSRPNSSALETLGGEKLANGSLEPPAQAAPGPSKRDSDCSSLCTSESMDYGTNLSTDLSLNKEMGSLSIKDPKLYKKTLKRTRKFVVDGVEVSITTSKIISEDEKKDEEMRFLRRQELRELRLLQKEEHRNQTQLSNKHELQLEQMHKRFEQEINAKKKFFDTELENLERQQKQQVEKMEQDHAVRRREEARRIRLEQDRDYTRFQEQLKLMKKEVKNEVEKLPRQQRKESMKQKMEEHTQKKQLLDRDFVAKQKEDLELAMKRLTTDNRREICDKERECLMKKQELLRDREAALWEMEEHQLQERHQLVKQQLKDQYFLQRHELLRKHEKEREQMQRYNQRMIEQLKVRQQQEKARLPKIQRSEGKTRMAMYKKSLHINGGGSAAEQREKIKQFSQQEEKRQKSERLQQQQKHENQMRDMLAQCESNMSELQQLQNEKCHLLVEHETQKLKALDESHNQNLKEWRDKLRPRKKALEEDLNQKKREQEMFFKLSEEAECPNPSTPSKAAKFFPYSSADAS

# Sample 1 — effect on: radioligand binding; method: radioligand displacement; tested at: 10 µM
# Target: Translocator protein (Tspo, Rattus norvegicus, UniProt P16257)
# Sequence of UniProt P16257 (whole entry, looked up): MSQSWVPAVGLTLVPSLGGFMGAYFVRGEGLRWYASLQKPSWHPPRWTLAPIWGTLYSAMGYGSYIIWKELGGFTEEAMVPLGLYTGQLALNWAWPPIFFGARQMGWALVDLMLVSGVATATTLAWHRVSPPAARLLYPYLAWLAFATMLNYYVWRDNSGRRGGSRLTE
Structure (SMILES),inhibition [%]
CCC(=N\O)/C(C)=C/c1ccc(F)cc1,11.9
O=C(O)[C@@H]1[C@@H](Cn2nnc3ccccc3c2=O)CC[C@H]1C(=O)c1ccc(OCCC2CCOCC2)cc1,13.4
O=C1NC(c2ccccn2)Sc2ccccc21 (stereo not shown),22.6
CNCc1ccccc1-c1csc([C@@H](C)Nc2nc(C)nc3cc(OC)c(OC)cc23)c1,13.1
O=C(NCCCC1CCCCC1)c1ccc(CNC(=O)c2cnn(-c3ccccc3)c2C(F)(F)F)cc1,-16.5
"COc1ccc2c(c1)O[C@H](c1ccc(OC)c(OC)c1)C[C@@H]2NC(=O)C1(c2ccc3c(c2)OC(F)(F)O3)CC1 (single isomer, unassigned)",66.6
N#Cc1ccc(Nc2ccc3[nH]c(=O)[nH]c3c2)c(Cl)c1,3.22
CCOC(=O)c1cc2cc(-c3cc(C(=O)NCc4ccc(C(=O)O)cc4)nn3C)ccc2[nH]1,-1.91
Cc1c[nH]c2nccc(Oc3c(F)cc(Nc4cc(Cl)nc(N)n4)cc3F)c12,24.9

# Sample 2 — Compound: COc1cccc(-c2cc(=O)c3ccccc3o2)c1N; effect on: enzyme activity; mode: inhibitor; tested at: 0.5 µM; relative to: control
target,remaining activity [%]
"G protein-coupled receptor kinase 3 (GRK3, Homo sapiens, UniProt P35626)",94.7
"Mitogen-activated protein kinase 9 (MAPK9, Homo sapiens, UniProt P45984)",89.8
"Cyclin-dependent kinase 5, with p25 (CDK5, Homo sapiens, UniProt Q00535)",87.5
"Death-associated protein kinase 1 (DAPK1, Homo sapiens, UniProt P53355)",90.9
"Protein kinase C alpha type (PRKCA, Homo sapiens, UniProt P17252)",102
"STE20/SPS1-related proline-alanine-rich protein kinase (STK39, Homo sapiens, UniProt Q9UEW8)",86.8
"Inhibitor of nuclear factor kappa-B kinase subunit beta (IKBKB, Homo sapiens, UniProt O14920)",92.5
"Inhibitor of nuclear factor kappa-B kinase subunit epsilon (IKBKE, Homo sapiens, UniProt Q14164)",95.1
"cGMP-dependent protein kinase 1, isoform beta (PRKG1, Homo sapiens, UniProt Q13976)",108
"Serine/threonine-protein kinase Chk2 (CHEK2, Homo sapiens, UniProt O96017)",98.8
"Calcium/calmodulin-dependent protein kinase kinase 2 (CAMKK2, Homo sapiens, UniProt Q96RR4)",92.5
"Cyclin-dependent kinase 4, with cyclin D1 (CDK4, Homo sapiens, UniProt P11802)",100
"Serine/threonine-protein kinase Nek2 (NEK2, Homo sapiens, UniProt P51955)",86.1
"Tyrosine-protein kinase Lyn, isoform B (LYN, Homo sapiens, UniProt P07948)",98.7
"TGF-beta receptor type-1 (TGFBR1, Homo sapiens, UniProt P36897)",94.7
"Calcium/calmodulin-dependent protein kinase type II subunit delta (CAMK2D, Homo sapiens, UniProt Q13557)",91.5
"Serine/threonine-protein kinase OSR1 (OXSR1, Homo sapiens, UniProt O95747)",91.2
"cAMP-dependent protein kinase catalytic subunit alpha (PRKACA, Homo sapiens, UniProt P17612)",87.7
"TGF-beta receptor type-2 (TGFBR2, Homo sapiens, UniProt P37173)",115
"Serine/threonine-protein kinase 10 (STK10, Homo sapiens, UniProt O94804)",90.4
"Mitogen-activated protein kinase kinase kinase 3 (MAP3K3, Homo sapiens, UniProt Q99759)",83
"Death-associated protein kinase 2 (DAPK2, Homo sapiens, UniProt Q9UIK4)",107
"Serine/threonine-protein kinase STK11 (STK11, Homo sapiens, UniProt Q15831)",101
"Protein kinase C beta type, isoform beta-I (PRKCB, Homo sapiens, UniProt P05771)",98.5

# Sample 3 — method: protein-binding microarray; form: hairpin DNA; sample: in vitro; tested at: not given; relative to: not given; direction: higher = stronger binding
# Target: Cellular tumor antigen p53, full length (TP53, Homo sapiens, UniProt P04637, residues 1-393)
# Notes: whole hairpin DNA, median over replicate spots
Strand,median fluorescence
CGGACATGCGCGGGCATGTCTCCTGACATGCCCGCGCATGTCCGACACTC,15100 a.u.
CGGACATGCCCGGCCATGTCTCCTGACATGGCCGGGCATGTCCGACACTC (5mC at 14),10200 a.u.
CCACACGCGGTGGCATGCCTTCCTAGGCATGCCACCGCGTGTGGACACTC (5mC at 36),6820 a.u.
CCACGCGTGGTGGCATGCCTTCCTAGGCATGCCACCACGCGTGGACACTC,7700 a.u.
CCACACGTGGTGACATGCCTTCCTAGGCATGTCACCACGTGTGGACACTC,8370 a.u.
CGGACATGCCCGGTCATGTCTCCTGACATGACCGGGCATGTCCGACACTC,13700 a.u.
CGGACATCGCCGGGCATGTCTCCTGACATGCCCGGCGATGTCCGACACTC (5mC at 8),12000 a.u.
CGGACATGCCCGGGCGTGTCTCCTGACACGCCCGGGCATGTCCGACACTC (5mC at 15),12600 a.u.

# Sample 4 — method: protein-binding microarray; form: double-stranded DNA, one strand shown; sample: in vitro; tested at: not given; direction: higher = stronger binding
# Target: Max-binding protein MNT, bHLH-zipper, MAX partner unstated (MNT, Homo sapiens, UniProt Q99583, residues 220-300)
# Notes: k-mer, scored over probes, only values ≥0.25
# Target sequence (chain): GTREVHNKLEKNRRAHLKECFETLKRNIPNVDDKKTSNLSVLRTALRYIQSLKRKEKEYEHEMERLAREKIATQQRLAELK
Strand,E-score
AGCGTGCG,0.366
ATGTGTCA,0.334
CAAGCACG,0.379
TGTGTCAA,0.272
ACGTGAAG,0.335
GCATGTCC,0.357
GCGGGCAC,0.258
CGTGTTTC,0.302

# For quick reference, copied from above (sample 1):
Structure (SMILES),inhibition [%]
CNCc1ccccc1-c1csc([C@@H](C)Nc2nc(C)nc3cc(OC)c(OC)cc23)c1,13.1
N#Cc1ccc(Nc2ccc3[nH]c(=O)[nH]c3c2)c(Cl)c1,3.22
O=C(O)[C@@H]1[C@@H](Cn2nnc3ccccc3c2=O)CC[C@H]1C(=O)c1ccc(OCCC2CCOCC2)cc1,13.4
